# Published values of several laboratories.
# Several values in a cell are separate wells, animals, samples, runs or records. Numbers after ± are the reported error.
SMILES,target or system,assay,test system,setting,how to read,measurement,value
O=C1NC2(CC2)COc2ncc(F)cc2[C@H]2COCCN2c2ccn3ncc1c3n2,,,"Sprague-Dawley rat, female, brain","oral, 2.5 mg/kg/day, 4 weeks, end of treatment",,organ-to-body weight ratio,0.575 ± 0.046%
CC(C)CC(C(=O)N1CC2(CC1C#N)C(=O)Nc1ccccc12)N(C)C(=O)c1cc2c(F)cc(F)c(F)c2[nH]1 (stereo not shown),Human coronavirus 229E,cytopathic effect,MRC5,1.53 nM,,inhibition,22.6%
COc1ccccc1-c1n[nH]c2nc(N[C@H]3CC[C@H](NS(=O)(=O)CC(C)C)CC3)ncc12,,"bead binding, competition bead pull-down, refers to: LMJF.29.0850",Leishmania donovani extract,10 µM,reference: vehicle,relative abundance,1.29
CN1C(=O)C(C2C3=C(CC(C)(C)CC3=O)Oc3ccc([N+](=O)[O-])cc32)C(=O)N(C)C1=O (stereo not shown),mouse preadipocytes,"qPCR, refers to: HSL",,"IC20, 14 days, adipogenic induction",reference: untreated cells,mRNA level,decreased
CC(C)(C)C(=O)OCOP(=O)(OCOC(=O)C(C)(C)C)C1CCCN(O)C1=O (stereo not shown),BT-549,,,,,TGI,1.26 µM
O=C(O)c1ccc(-c2nc(-c3ccccc3Cl)c3sccn23)cc1,CD34+ hematopoietic stem cells,,,"10 µM, day 0, without TPO",,CD41-positive cell number,1100
COc1ccccc1-c1n[nH]c2nc(NC3CCN(C(=O)Cc4ccc(F)cc4F)CC3)ncc12,,"bead binding, competition bead pull-down, refers to: LINJ.02.0430",Leishmania donovani extract,10 µM,reference: vehicle,relative abundance,0.91
C#CCN1C(=O)C(CC#C)(C(=O)OCC)Oc2ccccc21 (stereo not shown),HaCaT,"cell growth or viability, CCK-8",,"12.5 µM, 72 h",,inhibition,0.65%
Cc1cc(C(=O)Nc2nc3cccc(C)c3n2[C@H]2CCCCN(C(=O)/C=C/CN(C)C)C2)ccn1,Trypanosoma brucei,,CLK1 C215S overexpressing,5 x EC50,,survival,105% and 102%
Cc1cc(Oc2nc(N3CC[C@@H](c4ccncc4)C3)ncc2F)[nH]n1,RD-ES,cell proliferation,,,,IC50,100 µM
COc1c(NC(=O)c2ccc(NC(=O)c3ccc(NC(=O)[C@H](Cc4c[nH]nn4)NC(=O)c4ccc(NC(=O)/C(C)=C/c5ccc(O)cc5)cc4)cc3)c(OC)c2O)ccc(C(=O)O)c1O,Mycolicibacterium phlei,"microbial growth, broth dilution",DSM750,,,MIC,4 µg/mL
Cc1ccc(N2CC3CC(C2)N3C)cc1C(=O)NC1(c2ccc3c4c(cccc24)C(=O)N3C)CC1,human coronavirus 229E,viral replication,Huh-7,0.01172 µM,,inhibition,0%
Cc1ccc(NS(=O)(=O)c2c(C(=O)N3CCCCCC3)c(C)n(C)c2C)c(Cl)c1,Fowlpox virus,viral infection,CEF,33.33 µM,reference: untreated,infection,98.2% and 106% and 89.2%

# For quick reference, copied from above:
SMILES,target or system,assay,test system,setting,how to read,measurement,value
CC(C)(C)C(=O)OCOP(=O)(OCOC(=O)C(C)(C)C)C1CCCN(O)C1=O (stereo not shown),BT-549,,,,,TGI,1.26 µM
O=C(O)c1ccc(-c2nc(-c3ccccc3Cl)c3sccn23)cc1,CD34+ hematopoietic stem cells,,,"10 µM, day 0, without TPO",,CD41-positive cell number,1100
